Measured values pooled from the literature.
Lines come from different studies, so protocols differ. ± gives the spread as reported.

COc1cc(/C=C/C(=O)O)ccc1O — result for “transepithelial electrical resistance”: 73.6 ± 5.7% (Caco-2/THP-1 co-culture; TEER; concentration not given, with: LPS 100 ng/mL; reference: control).
CC/C(=N\NC(=O)C(C)Nc1ccccc1)c1ccc(O)c(C)c1O (stereo not drawn): “LATS band intensity” 1 ± 0.39 (SK-OV-3; Western blot; 10 µM, 6 h, 2D culture, unit not given; reference: DMSO).
With CCCCN1CCN(c2ccc3nc(-c4ccc5nc(-c6cc(OC)ccc6OC)[nH]c5c4)[nH]c3c2)CC1 the growth percent was 102% (SF-268; SRB; 10 µM, 48 h).
O=C(Nc1nnc2n3c(Cc4ccccc4)n[nH]c3nc(-c3ccc(Cl)cc3)c1-2)c1ccccc1 has a cell growth of 97.2% (RXF 393; SRB; 10 µM, NCI60 single-dose screen; reference: untreated).
For Nc1cccc(N)n1, the inhibition was 16.6% (THP-1; pyroptotic LDH release; 2 µM, 40 min, with: LPS then nigericin).
With CCn1cc(-c2cc(Cn3ccnc3)cc3c2CCN([C@H](c2cc(OC)ccn2)C2CC2)C3=O)c(C(F)(F)F)n1 the EC50 was 13.9 µM (COR-L105; cell growth, inhibitor; 120 h).
The kynurenine level of O=C(O)/C=C/c1ccc(O)c(O)c1 is reported as 100 ± 5.3 % change (Caco-2/THP-1 co-culture; 0.25 µg/mL, with: LPS 250 ng/mL).
Cn1cc(-c2ccc(-c3cncc(Cl)c3N3CCC4(CCNC4=O)CC3)cc2)cn1 — result for “log2 fold change”: 2.08 (COLO 205; gene expression, microarray, refers to: FLOT1 mRNA; concentration not given, 2 h; reference: untreated cells).
CCCCCCCCCc1ccc(OCCOCCOCCOCCOCCOCCOCCOCCOCCO)cc1 gave an EC50 of 2.53 µM (HEK293T ATF4-FLuc reporter; ATF4 reporter gene, activator, luciferase reporter).
Oc1cccnc1 gave an inhibition of 9.65% (THP-1; pyroptotic LDH release; 2 µM, 40 min, with: LPS then nigericin).
Nc1cccc2c1C(=O)N(C1CCC(=O)NC1=O)C2=O (stereo not drawn): “surface marker level” 227% (RPMI-8226; flow cytometry, refers to: CD108; concentration not given; reference: comparator compound alone).
Cc1cc(OCc2nnc(SC3CCCC3)n2-c2cccnc2)ccc1-c1ccc(S(C)(=O)=O)cc1 — result for “MyBP-C level change”: 8.08 SD (human iPSC cardiomyocytes; plate-normalised; concentration not given, hit retest; reference: vehicle controls, SDs below control).
Nc1cccc2c1CN(C1CCC(=O)NC1=O)C2=O (stereo not drawn) has a viability of 7% (bone marrow CD138+ myeloma cells; XTT; 1.8 µM, phenol red-free RPMI).
O=C(O)c1cc(O)c(O)c(O)c1: “transepithelial electrical resistance” 88.4 ± 5.7% (Caco-2/THP-1 co-culture; TEER; 0.5 µg/mL, with: LPS 500 ng/mL; reference: control).
COC(=O)CC1CCN(C(=O)c2cc(-c3cccs3)nn2-c2ccccc2)CC1 gave an inhibition of 45.2 ± 16.4% (human monocytes; phagocytosis of anti-D RBCs; 5 µM, lab-synthesized sample).
With CC[C@H]1OC(=O)[C@H](C)C(=O)[C@H](C)[C@@H](O[C@@H]2O[C@H](C)C[C@H](N(C)C)[C@H]2O)[C@](C)(OC)C[C@@H](C)C(=O)[C@H](C)[C@H]2N(NCCCc3ccnc4ccccc34)C(=O)O[C@]12C the EC50 was > 9.96 µM (HEK293T ATF4-FLuc reporter; ATF4 reporter gene, activator, luciferase reporter).
For Cc1ccc(C(=O)O)cc1, the inhibition was 17.1% (THP-1; pyroptotic LDH release; 2 µM, 40 min, with: LPS then nigericin).
COc1cc(O)c2c(=O)c(O)c(-c3ccc(O)c(O)c3)oc2c1: “transepithelial electrical resistance” 94.3 ± 2.2% (Caco-2/THP-1 co-culture; TEER; concentration not given, with: LPS 250 ng/mL; reference: control).
CC(C)OC(=O)CCC/C=C\C[C@@H]1[C@@H](/C=C/[C@@H](O)COc2cccc(C(F)(F)F)c2)[C@H](O)C[C@@H]1O has an EC50 of 9.33 µM (HEK293T ATF4-FLuc reporter; ATF4 reporter gene, activator, luciferase reporter).
With COc1cc(/C=C/C(=O)N2CCC=CC2=O)cc(OC)c1OC the mRNA level was 63.9 ± 5.6% (MDA-MB-468; quantitative RT-PCR, refers to: GPX7; 30 µM, 8 h; reference: untreated cells).
With C=Cc1c2[n-]c(c1C)/C=c1\[n-]/c(c(C)c1C=C)=C\c1[n-]c(c(CCC(=O)O)c1C)/C=c1\[n-]c(c(C)c1CCC(=O)O)=C2.[Sn+4] the fold change was 1.92 (SH-SY5Y; RNA-seq, refers to: TGFB1I1 mRNA; 5 µM, 5 h; reference: untreated cells).
CN(Cc1ccc(S(=O)(=O)N2CCOCC2)cc1)c1ccc2c3c(cccc13)C(=N)N2 gave an EC50 of 1.94 µM (HEK293T ATF4-FLuc reporter; ATF4 reporter gene, activator, luciferase reporter).
For O=C(/C=C/C=C/C=C/C1CCCCC1)NC1=C[C@@](O)(/C=C/C=C/C=C/C(=O)NC2=C(O)CCC2=O)[C@@H]2O[C@@H]2C1=O, the GI50 was 9.95 µM (snu719; cell growth, inhibitor, CellTiter-Glo luminescence; 78 h; reference: day 0 cell count).
For C[C@H](CS)C(=O)N1CCC[C@H]1C(=O)O, the apoptotic cells was 7.47% (HUVEC; annexin V/PI flow cytometry; 10 µM, early and late apoptosis, with: angiotensin II 1 µM).
Cn1c(Nc2nc3ccc(C(F)(F)F)cc3s2)nc2cc(C(=O)NCCOCCO)ccc21 has a fold change of 3.91 (SH-SY5Y; RNA-seq, refers to: SERPINE1 mRNA; 5 µM, 5 h; reference: untreated cells).
For O=C(/C=C/c1ccc(CN(CCO)CCc2c[nH]c3ccccc23)cc1)NO, the EC50 was 0.186 µM (HEK293T ATF4-FLuc reporter; ATF4 reporter gene, activator, luciferase reporter).
For Cc1cnc2ccc3c(c2n1)N1CCC(O)N=C1N3C (stereo not drawn), the plating efficiency was 0% (BALB/c 3T3; colony formation; 10 µM).
Under phosphorylation, CC(=O)Nc1cc(Oc2ccc3c(nc(Nc4ccc(F)cc4F)n3C)c2C)ccn1 is recorded as “inhibited” (MUTZ5 cells; Western blot, refers to: JAK2, STAT5, STAT3; concentration not given).
For CC(C)C[C@H](NC(=O)CNC(=O)c1cc(Cl)ccc1Cl)B(O)O, the EC50 was 0.533 µM (HEK293T ATF4-FLuc reporter; ATF4 reporter gene, activator, luciferase reporter).
Cc1c(C)c2c(c(C)c1O)CCC(C)(COc1ccc(CC3SC(=O)NC3=O)cc1)O2 (stereo not drawn) — result for “point of departure”: 0.204 µM (HepG2; extracellular flux, refers to: oxygen consumption rate; 6 h, representative mode).
With COc1cc(NC(=O)CCN2CCC(OC(=O)Nc3ccccc3-c3ccccc3)CC2)c(Cl)cc1CNC[C@H](O)c1ccc(O)c2[nH]c(=O)ccc12 the EC50 was > 9.96 µM (HEK293T ATF4-FLuc reporter; ATF4 reporter gene, activator, luciferase reporter).
With O=c1[nH]c(=O)c2ccccc2o1 the inhibition was 57.4% (THP-1; pyroptotic LDH release; 2 µM, 40 min, with: LPS then nigericin).
COc1cnc2cccc(N3CCc4c(cc(Cn5ccnc5C)cc4-c4cn(C)nc4C(F)(F)F)C3=O)c2c1 has an EC50 of > 30 µM (OV7; cell growth, inhibitor; 120 h).
With Cc1ccc(CNC(=O)Cn2cc(CSc3nc4ccccc4[nH]3)nn2)cc1 the viability was 28.3% (Caco-2; MTT; 31.3 ppm).
Under “G1 phase cells”, COc1ccc(NC(=S)N/N=C/c2cccc3cc4ccccc4nc23)cc1 is recorded as 58.1 ± 1.9% (HeLa; PI flow cytometry; IC12.5, 48 h).
With CC(C)NCC(O)c1ccc(O)c(O)c1 (stereo not drawn) the sarcomere length was 1.8 µm (mouse ventricular cardiomyocytes; dose not given, 0.043 s).
Cc1cc(Nc2ncc(Cl)c(Nc3ccccc3S(=O)(=O)C(C)C)n2)c(OC(C)C)cc1C1CCNCC1: “log2 fold change” -4.52 (CLB-GE; phosphoproteomics LC-MS/MS, refers to: CCDC88C phosphorylation; 200 nM, 60 min; reference: untreated).
CCOc1ccc(-c2nc3cc(-c4nc5cc(N6CCN(C)CC6)ccc5[nH]4)ccc3[nH]2)cc1OCC gave a growth percent of 14.8% (OVCAR-8; SRB; 10 µM, 48 h).
For CCCCN1C[C@H](O)[C@@H](O)[C@@H](O)[C@H]1CO, the IC50 was 17 µM (sample BB patient fibroblasts; Gb3 level lowering, LC-MS/MS, refers to: Gb3 d18:1/18:0; 216 h).
Cc1nnn(C)c1-c1cnc2c3ccc(C(C)(C)O)cc3n([C@H](c3ccccc3)C3CCOCC3)c2c1 has an EC50 of 1.26 µM (HEK293T ATF4-FLuc reporter; ATF4 reporter gene, activator, luciferase reporter).
CCCC(=O)[O-].[Na+]: “transepithelial electrical resistance” 91.9 ± 4.5% (Caco-2/THP-1 co-culture; TEER; concentration not given, with: LPS 500 ng/mL; reference: control).
OC[C@H]1O[C@@H](n2cnc3c(O)nc(O)nc32)[C@H](O)[C@@H]1O has an inhibition of 4.4% (THP-1; pyroptotic LDH release; 2 µM, 40 min, with: LPS then nigericin).
With C=CC(=O)N1CCC(Oc2cc3c(Nc4ccc(Cl)c(Cl)c4F)ncnc3cc2OC)CC1 the selectivity ratio was 0.045 (NCI-H2073 EGFR SVD knock-in; cell proliferation, CellTiter-Glo; reference: knock-in over parental NCI-H2073).
The EC50 of CCn1cc(-c2cc(Cn3ccoc3=N)cc3c2CCN([C@@H](C)c2cc(OC)ccn2)C3=O)c(C(F)(F)F)n1 is reported as > 30 µM (NCI-H747; cell growth, inhibitor; 120 h).
C[C@H]1[C@H](C)CC[C@]2(C)CC[C@]3(C)C(=CC(=O)[C@@H]4[C@@]5(C)CC[C@@H](O)[C@](C)(C(=O)NCc6cn(-c7cccc(Br)c7)nn6)[C@@H]5CC[C@]43C)[C@H]12 — result for “CD8- T cells”: 40% (human PBMCs, ConA-activated; flow cytometry; 5 µM, 24 h; reference: T cells).
CO/N=C1\C[C@]2(C[C@@H]3C[C@@H](C/C=C(\C)C[C@@H](C)/C=C/C=C4\CO[C@@H]5[C@H](O)C(C)=C[C@@H](C(=O)O3)[C@]45O)O2)O[C@H](/C(C)=C/C(C)C)[C@H]1C has an inhibition of 9.85% (THP-1; pyroptotic LDH release; 2 µM, 40 min, with: LPS then nigericin).
Under “transepithelial electrical resistance”, O=C(O)CCc1ccc(O)c(O)c1 is recorded as 79.4 ± 4.6% (Caco-2/THP-1 co-culture; TEER; concentration not given, with: LPS 200 ng/mL; reference: control).
The inhibition of C[N+](C)(C)NCCC(=O)[O-] is reported as 13.3% (THP-1; pyroptotic LDH release; 2 µM, 40 min, with: LPS then nigericin).
Under “mean neuron degeneration”, C=CC(=O)N1[C@@H](c2ccc3c(c2)OCO3)c2[nH]c3ccccc3c2C[C@H]1C(=O)NC is recorded as 70.9% (rat DRG neurons; 1.111 µM, 48 h, with: vincristine 40 nM).
C=CC(=O)Nc1cc2c(Nc3ccc(F)c(Cl)c3)ncnc2cc1OCCCN1CCOCC1 has an inhibition of 34.7% (THP-1; pyroptotic LDH release; 2 µM, 40 min, with: LPS then nigericin).
For Cc1cc(N2CCc3c(c(C)nn3CC34CCC(NC(=O)[C@@H]5COCCN5)(CC3)CC4)C2)c2cnn(C)c2n1, the inhibition was 93 ± 1% (human PBMC; qRT-PCR, refers to: IFI44 mRNA; 100 nM, with: ssRNA).

A few entries again:
COC(=O)CC1CCN(C(=O)c2cc(-c3cccs3)nn2-c2ccccc2)CC1 gave an inhibition of 45.2 ± 16.4% (human monocytes; phagocytosis of anti-D RBCs; 5 µM, lab-synthesized sample).
O=C(Nc1nnc2n3c(Cc4ccccc4)n[nH]c3nc(-c3ccc(Cl)cc3)c1-2)c1ccccc1 has a cell growth of 97.2% (RXF 393; SRB; 10 µM, NCI60 single-dose screen; reference: untreated).
Oc1cccnc1 gave an inhibition of 9.65% (THP-1; pyroptotic LDH release; 2 µM, 40 min, with: LPS then nigericin).
Cc1cc(Nc2ncc(Cl)c(Nc3ccccc3S(=O)(=O)C(C)C)n2)c(OC(C)C)cc1C1CCNCC1: “log2 fold change” -4.52 (CLB-GE; phosphoproteomics LC-MS/MS, refers to: CCDC88C phosphorylation; 200 nM, 60 min; reference: untreated).
